# Measured values gathered from unrelated publications.
# Every numbered part comes from another study and shows a few of its results, in no order. Changes are numbered by the printed parent chain.

# Sample 1
# Target: CCNB2, cyclin fold, Cln2 fusion (human)
# Method: yeast growth competition, sequencing
# Matrix: yeast
# Setting: weak parent motif
# Relative to: not given
# Direction: higher = stronger binding
# Parent: SLBP docking peptide (human); ARYKRKLLINDFG
Substitution,normalised enrichment score
ARYKRKLLIIDFG [N10I],0.524
GRYKRKLLINDFG [A1G],0.361
ARYKRKMLINDFG [L7M],0.634
ARYKRKILINDFG [L7I],0.359
LRYKRKLLINDFG [A1L],0.306
ARYKRKLAINDFG [L8A],0.498
ARNKRKLLINDFG [Y3N],0.476
ARYKRKLLINDRG [F12R],1.44
WRYKRKLLINDFG [A1W],1.28
ARMKRKLLINDFG [Y3M],0.627

# Sample 2
# Target: RNA binding protein fox-1 homolog 2, RRM domain, GST-SBP tag (RBFOX2, Homo sapiens, UniProt O43251-10, residues 100-194)
# Method: RNA Bind-n-Seq
# Molecule type: RNA
# Matrix: in vitro
# Concentration: 365 nM
# Setting: natural RNA segment, single round, ends assumed
# Relative to: no-protein control
# Direction: higher = stronger binding
# Constant ends, left off below: GGGAGUUCUACAGUCCGACGAUC … UGGAAUUCUCGGGUGCCAA
# Target sequence (chain): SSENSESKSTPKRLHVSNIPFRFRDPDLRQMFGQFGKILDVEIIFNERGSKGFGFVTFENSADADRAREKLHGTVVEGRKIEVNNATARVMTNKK
Sequence,RBNS enrichment (R)
UAAUAUCUUUUCUCUUUUAACAUUGAAGAAAUGGGAAAUUUCAUUAAUGACAUUGUUGUUGAUAAAUCUUUUUGCCUAAAAACUAGAAUAAAAUUGCAGUUGUUUCAGUG,0.399
CUUAAGUGUGAGACUUGGGUGGAUGGGAAAGUUAAAUAUUGGUCUCUUCAAGUUUUUUUUUUCUUUUGCUUUGUUACCACUUGUCACUGUCUCCAUGUUAAAAUGCCAAA,1.41
GCCUCUGCUCCUGCUCCUGCCUGCAUGUUCUCUCUGUUGUUGGAGCCUGGAGCCUUGCUCUCUGGGCACAGAGGGGUCCACUCUCCUGCCUGCUGGGACCUAUGGAAGGG,8.98
CUAUGAUGACUUCAGAAGAUACAAUGGUCCCAGGGGCCAAGUAGAAAGCAUUUUUAAAGAUUAAUCUGAAUUAAGCUUUAUCAGUGUACUCUUUAUCUGUGUUACUAGUG,0.289
CCGCGGGUCCUGUUUCCUUACUGGGGAUUUCAGGGCUGGGGGUUCAGGGAGCAUUUCCUUUUCCUGGGAGUUAUGACCGCGAAGUUGUCAUGUGCCGUGCCCUUUUCUGU,0.307
AUACACUUUUGUAAAGAAGUAUAUUUUUAUGAAAAGAAACUUUGUAAAAGUAUGAUGUAAAUUUUCAGUGCAAUGUAAACAAAAUAAAAAUGGAUAAUUGCUUUUGUAAA,0.699
GACGUUAAAAUAAUGAUUUGAUUUCCUGCCCUGGUUUGAAGGUCCAUUUUAUUCCUUUGCACUCAUUCACUGUUUCUCCUUUUAAAAUCCCUAAAAAUAUUUCCACCGUC,0.463

# Sample 3
# Target: Interferon regulatory factor 5, full length, phosphomimetic (IRF5, Homo sapiens, UniProt Q13568-2, residues 1-514, S451D/S453D/S456D/S462D)
# Method: protein-binding microarray
# Molecule type: double-stranded DNA, one strand shown
# Matrix: in vitro
# Concentration: 940 nM top
# Setting: 60-bp whole probe
# With: salmon DNA 0.4 mg/ml
# Relative to: random background probes
# Direction: higher = stronger binding
# Constant ends, left off below: GCCTAGCAC … GTCTTGATTCGCTTGACGCTGCTG
Sequence,fitted relative affinity [z-score]
GACGGACTGGACTATCCGGACGTGCTA,-0.402
GACGAACTGGGGATTCGAGACGTGCTA,-0.357
GACGGATTGGACTATCGGGACGTGCTA,-0.301
TCACCTCTCACGCATCTGACTGTGCTA,0.731
TCATTTTTTTTCTTTAAACTGTGCTAG,1.66
TTAGATTTCGGGTATCGAGTAGTGCTA,2.04
TTTGGTTTGTACACCGCCTTGTGCTAG,-0.0887
TCATAATTTACTTTGGTACTGTGCTAG,0.376
GACGGAATGCTTATCCTGACGTGCTAG,-0.684

# Further values, each from its own experiment
Molecule,target,test,test system,setting,how to read,measurement,result
"PhoQ, residues 284 288 289 292 302 303 ASSHFY","PhoP, residues 12 14 15 18 19 TTLRV (Escherichia coli, UniProt P23836)","Sort-seq, measured: YFP reporter",E. coli,"PhoQ-PhoP variant library, with: 10 µM Mg2+","relative to: high Mg2+ state, higher = stronger signaling",fold induction,11.6

# Some of these lines once more (sample 2):
Sequence,RBNS enrichment (R)
GACGUUAAAAUAAUGAUUUGAUUUCCUGCCCUGGUUUGAAGGUCCAUUUUAUUCCUUUGCACUCAUUCACUGUUUCUCCUUUUAAAAUCCCUAAAAAUAUUUCCACCGUC,0.463
UAAUAUCUUUUCUCUUUUAACAUUGAAGAAAUGGGAAAUUUCAUUAAUGACAUUGUUGUUGAUAAAUCUUUUUGCCUAAAAACUAGAAUAAAAUUGCAGUUGUUUCAGUG,0.399
